Experimental data gathered from unrelated publications.
Parts stem from different laboratories: compare values within a part only.

Set 1
Target: RNA binding protein fox-1 homolog 2, RRM domain, GST-SBP tag (RBFOX2, Homo sapiens, UniProt O43251-10, residues 100-194)
Technique: RNA Bind-n-Seq
Molecule type: RNA
Sample: in vitro
Tested at: 365 nM
Notes: natural RNA segment, single round, ends assumed
Reference: no-protein control
Direction: higher = stronger binding
Constant ends, left off below: GGGAGUUCUACAGUCCGACGAUC … UGGAAUUCUCGGGUGCCAA
Target sequence (chain): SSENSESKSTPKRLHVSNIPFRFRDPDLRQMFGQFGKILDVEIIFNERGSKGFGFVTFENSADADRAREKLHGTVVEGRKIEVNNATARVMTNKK
Strand | RBNS enrichment (R)
UAGCACUAAAAAGAUUGAGUUAAAAAUAAGAUUUAAAAAAUAUAUAUUGAUUAAAAUGUACCACUAGAAAGGUAUUACAUGUGUAUAAGUAUGGGUAAAAAGGCAAGUCA | 0.772
UUUGCUGGCCCCCAAGCUGUUGUUUGUUAGGUGAGGUUAAGUAGGGCUCUUCUGGUCCUGUGCAUACCUAUUGCCUUUGACAGAACGGUACAGUUUGUUUAUGCAGGAGG | 0.387
AACCCCACACUUGAUGCUCUGUCCUCUCCACACAGGCCUCUUGCUCCUAACAGCUCAGCCCUGGCCUUUUCUCACUACUGAUAGCAUCAUGUAAAUGCUCCAUGUUCCUG | 0.515
UUGCAGGCCUGCACAGGCUGGGGAGUCCUCAGGACCUUAGGACCUUCAUCCAGGGGCUGGGCUUCGGGUCUUCAGGAGUGGGCCUUGGCUGGUGCUGGUGCCAUGGACUC | 0.753
GAUGGACCAAAGCAGUGUCUUCUCAUGCGCUAACAUUGAUGAAUAUUGUUUCACACAAAAAUUAAAAGUUUCCUAAUUAAUGUUGUAUUCAUAUAUGUAGGCUCUGAAAU | 0.449
UGACAGUGGUGCCCUAUGGAAGGGCACCUAGUUGGCUAGGGGUGUAGGCUGAGCUGAGAGGGGUGUUCUUUGGCAAGGUUCUCCCUCCUCUAGUUUCUCCCAGGAGCUGG | 0.497
ACUGUUGUUUAUUGUUGAAUCUGUGUGUCAGCCAGGAGAGCGCUGUCUGGCCUUGAACAUGGGCUGGGAUGGGAAAGGGUCUGGGAGAAGAUGGGCAACAAAGAGCCAGG | 0.811
CUAUUUUGUUGUCAAUACAAUUUAAUAUCAAUCAGAGUAAUCCUUUGUACAUUGAGAGGAGGGGCUUGGUUUCACCAUCCCCGUCCUUUCCCCACGGAUCCACCAGGAUU | 0.213
CUGCGAUCCUUCCCACCGUCAGCCUUUGUUUCUCAUCCUCACCUCCAAAGAUGGGAUUAUUAAUCCAACUCUAGAAAGAGUCCAAAUCUUCAGCCCGUGUCUCAUACACU | 0.503

Set 2
Target: Interferon regulatory factor 5, full length, phosphomimetic (IRF5, Homo sapiens, UniProt Q13568-2, residues 1-514, K96S/S451D/S453D/S456D/S462D)
Technique: protein-binding microarray
Molecule type: double-stranded DNA, one strand shown
Sample: in vitro
Tested at: 250 nM
Notes: 60-bp whole probe
Added: salmon DNA 0.4 mg/ml
Reference: random background probes
Direction: higher = stronger binding
Constant ends, left off below: GCCTAGCAC … GTCTTGATTCGCTTGACGCTGCTG
Strand | log fluorescence
TCAATTTTGTCCTCCCCTACTGTGCTA | 0.424 z-score
TTATATATCAGTCTCGATTAGTGCTAG | 2.18 z-score
TTAGATTGCAGTTCCGATTAGTGCTAG | 0.73 z-score
GACGGTATAGGGACTGGGGACGTGCTA | -0.425 z-score
TCATTTTCATATATATAACTGTGCTAG | 3.32 z-score
AGCCAGGCAACCTATGGCCTGTGCTAG | -0.83 z-score
GACGTTTTCAGTATCGAGACGTGCTAG | 4.6 z-score
TCAGGTTTCAGATGCGTACTGTGCTAG | 1.4 z-score
TCAGGACTGGGGACTGGGTTAGTGCTA | -0.539 z-score
TTAGGTATCGACTTTCGGTTCGTGCTA | 9.38 z-score
GACGAAATCAGTCTCGAGACGTGCTAG | 0.912 z-score
TTAGATTTCAATCTCGATTAGTGCTAG | 1.4 z-score
TCATAGATGCCTTTCTCACTGTGCTAG | 0.202 z-score
GACGATCTCAGTTGCGAGACGTGCTAG | 0.138 z-score
GACGGTTTCGACTATCGGGCCGTGCTA | 6.86 z-score
GATTTTTTCTGCTTAGAGCTGTGCTAG | 1.41 z-score
TTAGACTTCAGTTTCGATTAGTGCTAG | 9.58 z-score
GACGATATCGAGACTGGAGACGTGCTA | 1.2 z-score
TCAATTTTCAATTCCTGACTGTGCTAG | 1.4 z-score
GACGAACTGAGTACCGAGACGTGCTAG | -0.306 z-score
TTAGGTCTCCGTTTCGGTTAGTGCTAG | 7.51 z-score
GACGATATCAGTTTCGAGCCGTGCTAG | 5.69 z-score
TCAAATGATTGGTTGAAACTGTGCTAG | 0.468 z-score
TTAGGACTGGACACTGGGATAGTGCTA | -0.593 z-score
CGAGTTTTCTCTCCCATTCTGTGCTAG | 1 z-score

Set 3
Target: Phosphate system positive regulatory protein PHO4, full length, GST-tagged (PHO4, Saccharomyces cerevisiae, UniProt P07270, residues 1-312)
Technique: competition protein-binding microarray
Molecule type: double-stranded DNA, one strand shown
Sample: in vitro
Tested at: 2 µM
Notes: whole 60-bp probe, lowest competitor level
Added: Cbf1 competitor, 0.05 µM
Direction: higher = stronger binding
Constant ends, left off below: … GTCTTGATTCGCTTGACGCTGCTG
Target sequence (chain): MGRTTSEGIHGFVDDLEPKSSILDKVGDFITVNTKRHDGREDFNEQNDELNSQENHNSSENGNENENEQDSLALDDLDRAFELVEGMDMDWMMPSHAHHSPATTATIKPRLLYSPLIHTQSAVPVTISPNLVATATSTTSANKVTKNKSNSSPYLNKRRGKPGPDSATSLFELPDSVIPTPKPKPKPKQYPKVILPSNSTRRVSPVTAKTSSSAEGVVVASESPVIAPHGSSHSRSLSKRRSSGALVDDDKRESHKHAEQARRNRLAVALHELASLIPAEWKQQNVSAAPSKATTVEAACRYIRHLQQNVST
Strand | fluorescence intensity [a.u.]
CGTCCTAGTGATTTTCACGTGTGTTCCATGAGGAAG | 11800
AAGATTACCAATCACCACGTTATTTGAGAGAGGATG | 9870
ATTCATGTTTGGCTACTCGTGCTTTCTTCGAAGAAT | 11800
AAATTACTAAGTTGATGTGTGGGTGACGCCGTATGA | 5480
ACCCAAACTGTGTGGAACGTGACGGAATTGCATTTG | 13200
CTTTCCCGATCTTGGATGGTGGGTGTAGCACATTTG | 4430
CTAGGCGGGATCTGGCCCGTGGAACTCGTATGGAAT | 6750
CTTCTGTAAATTTGAGGTGTGGGTGGACGCGCCCCG | 6070
AAATTACTAAGTTGCAAAGTGGGTGACGCCGTATGA | 4120
AAAGCGGTAATTTTCCACGTGTTTTCACATATCTAT | 16500
TAAGATCGTCAGTTTCACGTTCGCGGTTCGAACATG | 7150
GGTGAAGCCGGTATCGTCGTGCCGACCGCAGACTAC | 7850
TAAGTGAGATGGAGTGGCGTGGAACTGCAGGCTGGT | 5080
TGTGGGGGTAACCATCACGGCGTCGCACAACCCATA | 6100
TCGCTTCCATTGCTGCCCGTGAAACTGCAAAGGCCA | 3970
AAATTACTAAGTTGTCACGTGTTTTACCCCGTATGA | 14200
TGATTTGCTTCTCACCACGGGTAGTTATCATTGGCT | 7530
GTTTCTGATGACCATCACGTGAAGAATTTGATGTCC | 14400
TGCGCAACAACTTGTCACTGAACTTTATGTCTAGAA | 2840
GCCTCCGGTCCAGGCACCGTGGCCGCAGGTTTGATT | 5970
CTTCTGTAAATTTGTGCAGTGGGTGGACGCGCCCCG | 4570
CTTCTGTAAATTTGACACGTGTTTTGACGCGCCCCG | 17400
GGATGAGTCAAAAAGCATGTGACAGTGAAATAATCA | 10100
GCTCCCTGGTTCCGTCACGCAAAACCGAAAGGCTCA | 3260
GCAAAGGAGGGAAAGCACGGGCAGATAGCACCGTAC | 7850

Set 4
Target: Histone acetyltransferase KAT6A, winged helix 1, GST fusion (KAT6A, Homo sapiens, UniProt Q92794, residues 1-85)
Technique: protein binding microarray
Molecule type: double-stranded DNA, one strand shown
Sample: in vitro
Tested at: not given
Notes: 8-mer, flanks averaged, mean of 2 arrays, mostly near background
Reference: not given
Direction: higher = stronger binding
Target sequence (chain): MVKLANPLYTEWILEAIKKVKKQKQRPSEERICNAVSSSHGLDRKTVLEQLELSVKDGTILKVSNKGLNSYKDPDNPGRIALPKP
Strand | E-score
AGGACGTA | -0.0723
AACTGCGT | 0.127
AGCGACGC | 0.353
AATCCGCT | 0.111
CGTTAATC | 0.166
CCAATCAC | -0.172
TGATTGAA | -0.111
ACGCAACT | -0.00758
AGGGAAGC | 0.0322
ATGATCAA | -0.0203
AGCGGTCC | 0.196
AGTGGCAC | -0.0452
ATGAGTAC | 0.0964
ACAACTTA | -0.172
CCTTCTCA | -0.151
GCGGATCC | 0.316
AGGTAGAT | -0.0902
GGTTCTAA | -0.00539
ACCCCATG | -0.148
ACTAGCGA | 0.0887
ACAATGAA | -0.299
ACTCTGCT | -0.303
GGTAACGA | -0.0314
CCCTCCAC | -0.157
TCGAAACA | -0.247

For quick reference, copied from above (set 3):
Strand | fluorescence intensity [a.u.]
AAGATTACCAATCACCACGTTATTTGAGAGAGGATG | 9870
ATTCATGTTTGGCTACTCGTGCTTTCTTCGAAGAAT | 11800
AAATTACTAAGTTGATGTGTGGGTGACGCCGTATGA | 5480
ACCCAAACTGTGTGGAACGTGACGGAATTGCATTTG | 13200
CTTTCCCGATCTTGGATGGTGGGTGTAGCACATTTG | 4430
CTAGGCGGGATCTGGCCCGTGGAACTCGTATGGAAT | 6750
CTTCTGTAAATTTGAGGTGTGGGTGGACGCGCCCCG | 6070
AAATTACTAAGTTGCAAAGTGGGTGACGCCGTATGA | 4120
AAAGCGGTAATTTTCCACGTGTTTTCACATATCTAT | 16500
TAAGATCGTCAGTTTCACGTTCGCGGTTCGAACATG | 7150
GGTGAAGCCGGTATCGTCGTGCCGACCGCAGACTAC | 7850
TAAGTGAGATGGAGTGGCGTGGAACTGCAGGCTGGT | 5080
